Measurements collected from several papers.
Numbers after ± are the reported error.
Alb: Albumin (Alb, Rattus norvegicus, UniProt P02770)

Structure (SMILES) | tested on | assay | test system | setting | how to read | endpoint | result
CCOP(=O)(OCC)Oc1cc(C)nc(C(C)C)n1 | Alb | cell-free assay |  |  |  | IC50 | ~2000 nM
CCC1C=C(C(=O)NC2(C(=O)O)CC2CC)C2CCC(=O)C2C1 (centres unmarked) | COI1/TIFY10A, with JAZ1 (Arabidopsis thaliana, UniProt O04197+Q9LMA8) | saturation binding |  | dialyzed COI1, together with: 1 µM inositol hexakisphosphate |  | Kd | 37 ± 8 nM
COc1ccc2c(c1)N(OC)C(=O)C21CC2N=C(C(C)=O)C3CC1OCC23 (centres unmarked) |  |  | Kunming mice both sexes | intraperitoneal, 7 days |  | LD50 | > 30 mg/kg
CC[C@H](C)[C@@H]1NC(=O)[C@H](CCCNC(=N)N)NC(=O)[C@H](CO)NC(=O)[C@H](CCC(=O)O)NC(=O)[C@H](CC(=O)O)NC(=O)CNC(=O)CNC(=O)[C@H]([C@@H](C)O)NC(=O)[C@H](Cc2ccccc2)NC(=O)[C@H](CO)NC(=O)[C@H]([C@@H](C)O)NC(=O)[C@H](C)NC(=O)[C@@H]2CSSC[C@@H](C(=O)N[C@@H](Cc3ccc(O)cc3)C(=O)N[C@@H](Cc3ccccc3)C(=O)N[C@H](C(=O)N[C@H](C(=O)NCC(=O)O)[C@@H](C)O)[C@@H](C)O)NC(=O)[C@H]([C@@H](C)O)NC(=O)[C@H](CSSC[C@H](NC(=O)[C@H](CCC(=O)O)NC(=O)[C@H](CO)NC(=O)[C@H](CCCCN)NC(=O)[C@H](Cc3ccc(O)cc3)NC(=O)[C@@H]3CCCN3C(=O)[C@H](Cc3ccccc3)NC(=O)[C@H](CCCCN)NC(=O)[C@H](CCCNC(=N)N)NC(=O)[C@H](CCCCN)NC(=O)[C@H](CCCCN)NC(=O)[C@H](Cc3ccc(O)cc3)NC(=O)[C@@H]3CCCN3C(=O)[C@@H](NC(=O)[C@H](CC(=O)O)NC(=O)[C@H](CCCCN)NC(=O)[C@H](CCCCN)NC(=O)[C@@H](NC(=O)[C@@H](NC(=O)[C@@H](N)CCC(=O)O)C(C)C)[C@@H](C)CC)[C@@H](C)O)C(=O)N[C@@H](CC(C)C)C(=O)N[C@@H](CCCCN)C(=O)N[C@@H](C)C(=O)N2)NC(=O)[C@H](CCCCN)NC(=O)[C@H](Cc2ccccc2)NC(=O)[C@H](Cc2ccccc2)NC(=O)CNC(=O)[C@@H]2CCCN2C(=O)[C@H](CCCCN)NC(=O)CNC(=O)[C@H](CCC(=O)O)NC(=O)[C@H](CCC(N)=O)NC1=O | Potassium voltage-gated channel subfamily KQT member 1 (KCNQ1, Homo sapiens, UniProt P51787) | ion current, inhibitor |  | pH 7.4, homotetrameric channel |  | IC50 | 2800 ± 500 nM
CCOP(=O)(OCC)Oc1nc(Cl)c(Cl)cc1Cl | Alb | [3H]DFP labelling |  | concentration not given | reference: control | binding reduction | 56 ± 2%
CC(C)C[C@@H]1NC(=O)[C@H](CCCNC(=N)N)NC(=O)[C@@H]2CCCN2C(=O)[C@@H]2CSSC[C@H](NC(=O)CNC(=O)[C@@H]3CCCN3C(=O)[C@H](CCCCN)NC(=O)[C@H](CC(=O)O)NC(=O)[C@@H](NC(=O)CN)C(C)C)C(=O)N[C@@H](CCCNC(=N)N)C(=O)N[C@@H](Cc3ccc(O)cc3)C(=O)N[C@@H](CC(C)C)C(=O)N[C@@H](Cc3ccccc3)C(=O)NCC(=O)NCC(=O)N[C@H]3CSSC[C@H](NC(=O)CNC1=O)C(=O)N[C@@H](CCCCN)C(=O)NCC(=O)N[C@@H](CCCCN)C(=O)NCC(=O)N[C@@H](Cc1c[nH]cn1)C(=O)N[C@@H](CC(=O)O)C(=O)N[C@@H](Cc1ccc(O)cc1)C(=O)N[C@H](C(=O)N[C@@H](C)C(=O)N[C@@H](Cc1c[nH]c4ccccc14)C(=O)N[C@@H](CC(=O)O)C(=O)NCC(=O)N[C@H](C(=O)N[C@@H](Cc1ccccc1)C(=O)N[C@@H](CO)C(=O)N[C@@H](CC(=O)O)C(=O)O)[C@@H](C)O)CSSC[C@H](NC(=O)[C@H](CC(=O)O)NC(=O)[C@H](CC(=O)O)NC(=O)[C@H](CC(=O)O)NC(=O)[C@H](CO)NC(=O)[C@H](CCCCN)NC3=O)C(=O)N2 |  |  | mouse small DRG neurons | 1 µM |  | neurons with shorter latency | 89%
CCC1=NC2CC3(C(=O)N(OC)c4cc(OC)ccc43)C3CC1C2CO3 (centres unmarked) |  |  | Kunming mice both sexes | intraperitoneal, 7 days |  | LD50 | 0.56 mg/kg
CC[C@H](C)[C@@H]([C@@H](CC(=O)N1CCC[C@H]1[C@H](OC)[C@@H](C)C(=O)N[C@H](C)[C@@H](O)c1ccccc1)OC)N(C)C(=O)[C@@H](NC(=O)[C@H](C(C)C)N(C)C(=O)OCc1ccc(NC(=O)[C@H](CCCNC(N)=O)NC(=O)[C@@H](NC(=O)CCCC(=O)NCCC(=O)N(C)CC(=O)N(C)CC(=O)N(C)CC(=O)N(C)CC(=O)N(C)CC(=O)N(C)CC(=O)N(C)CC(=O)N(C)CC(=O)N(C)CC(=O)N(C)CC(=O)N[C@H]2CSCCC(=O)N3CN4CN(C3)C(=O)CCSC[C@H](NC(=O)[C@@H](CC(=O)O)NC(=O)[C@H](Cc3cccc5ccccc35)NC(=O)[C@@H]3CCCN3C2=O)C(=O)N[C@@H](CCSC)C(=O)N[C@@H](CCCCNC(=N)N)C(=O)N[C@@H](CC(=O)O)C(=O)N[C@@H](Cc2c[nH]c3ccccc23)C(=O)N[C@@H](CO)C(=O)N[C@@H]([C@@H](C)O)C(=O)N2CCC[C@H]2C(=O)N2C[C@H](O)C[C@H]2C(=O)N[C@@H](Cc2c[nH]c3ccccc23)C(=O)N[C@H](C(N)=O)CSCCC4=O)C(C)C)cc1)C(C)C |  |  | mouse, plasma | intravenous, 3 mg/kg |  | Vd | 0.25 L/kg
